{"data": "Published values of several laboratories", "CTSD": "Cathepsin D (CTSD, Homo sapiens, UniProt P07339)", "CYP3A4": "Cytochrome P450 3A4 (CYP3A4, Homo sapiens, UniProt P08684)", "note": "± marks the error that the study gave.", "UniProt P07339, sequence (whole entry, looked up)": "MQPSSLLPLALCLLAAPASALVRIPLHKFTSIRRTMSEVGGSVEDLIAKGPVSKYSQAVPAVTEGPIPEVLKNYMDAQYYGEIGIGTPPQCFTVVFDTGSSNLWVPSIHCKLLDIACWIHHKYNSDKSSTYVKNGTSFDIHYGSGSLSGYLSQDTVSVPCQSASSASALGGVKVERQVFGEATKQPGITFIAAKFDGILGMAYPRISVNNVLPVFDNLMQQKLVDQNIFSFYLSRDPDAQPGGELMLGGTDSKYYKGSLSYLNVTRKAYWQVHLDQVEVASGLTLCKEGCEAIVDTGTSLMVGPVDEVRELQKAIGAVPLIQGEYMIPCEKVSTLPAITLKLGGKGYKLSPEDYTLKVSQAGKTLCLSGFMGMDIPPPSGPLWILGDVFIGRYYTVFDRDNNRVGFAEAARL", "UniProt P08684, sequence (whole entry, looked up)": "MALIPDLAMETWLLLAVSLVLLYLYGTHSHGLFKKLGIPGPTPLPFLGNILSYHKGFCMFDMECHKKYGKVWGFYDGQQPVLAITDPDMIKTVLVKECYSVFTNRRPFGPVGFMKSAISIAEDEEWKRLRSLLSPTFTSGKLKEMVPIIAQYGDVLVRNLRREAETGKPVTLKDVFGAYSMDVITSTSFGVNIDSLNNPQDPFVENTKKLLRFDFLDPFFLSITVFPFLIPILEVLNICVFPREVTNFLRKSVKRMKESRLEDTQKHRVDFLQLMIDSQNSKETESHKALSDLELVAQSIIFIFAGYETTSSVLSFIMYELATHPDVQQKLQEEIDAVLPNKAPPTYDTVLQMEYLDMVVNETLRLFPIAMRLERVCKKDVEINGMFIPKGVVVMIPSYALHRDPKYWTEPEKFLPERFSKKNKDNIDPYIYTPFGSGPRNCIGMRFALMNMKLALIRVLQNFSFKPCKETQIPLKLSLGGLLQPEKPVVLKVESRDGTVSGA", "UniProt P33527, sequence (whole entry, looked up)": "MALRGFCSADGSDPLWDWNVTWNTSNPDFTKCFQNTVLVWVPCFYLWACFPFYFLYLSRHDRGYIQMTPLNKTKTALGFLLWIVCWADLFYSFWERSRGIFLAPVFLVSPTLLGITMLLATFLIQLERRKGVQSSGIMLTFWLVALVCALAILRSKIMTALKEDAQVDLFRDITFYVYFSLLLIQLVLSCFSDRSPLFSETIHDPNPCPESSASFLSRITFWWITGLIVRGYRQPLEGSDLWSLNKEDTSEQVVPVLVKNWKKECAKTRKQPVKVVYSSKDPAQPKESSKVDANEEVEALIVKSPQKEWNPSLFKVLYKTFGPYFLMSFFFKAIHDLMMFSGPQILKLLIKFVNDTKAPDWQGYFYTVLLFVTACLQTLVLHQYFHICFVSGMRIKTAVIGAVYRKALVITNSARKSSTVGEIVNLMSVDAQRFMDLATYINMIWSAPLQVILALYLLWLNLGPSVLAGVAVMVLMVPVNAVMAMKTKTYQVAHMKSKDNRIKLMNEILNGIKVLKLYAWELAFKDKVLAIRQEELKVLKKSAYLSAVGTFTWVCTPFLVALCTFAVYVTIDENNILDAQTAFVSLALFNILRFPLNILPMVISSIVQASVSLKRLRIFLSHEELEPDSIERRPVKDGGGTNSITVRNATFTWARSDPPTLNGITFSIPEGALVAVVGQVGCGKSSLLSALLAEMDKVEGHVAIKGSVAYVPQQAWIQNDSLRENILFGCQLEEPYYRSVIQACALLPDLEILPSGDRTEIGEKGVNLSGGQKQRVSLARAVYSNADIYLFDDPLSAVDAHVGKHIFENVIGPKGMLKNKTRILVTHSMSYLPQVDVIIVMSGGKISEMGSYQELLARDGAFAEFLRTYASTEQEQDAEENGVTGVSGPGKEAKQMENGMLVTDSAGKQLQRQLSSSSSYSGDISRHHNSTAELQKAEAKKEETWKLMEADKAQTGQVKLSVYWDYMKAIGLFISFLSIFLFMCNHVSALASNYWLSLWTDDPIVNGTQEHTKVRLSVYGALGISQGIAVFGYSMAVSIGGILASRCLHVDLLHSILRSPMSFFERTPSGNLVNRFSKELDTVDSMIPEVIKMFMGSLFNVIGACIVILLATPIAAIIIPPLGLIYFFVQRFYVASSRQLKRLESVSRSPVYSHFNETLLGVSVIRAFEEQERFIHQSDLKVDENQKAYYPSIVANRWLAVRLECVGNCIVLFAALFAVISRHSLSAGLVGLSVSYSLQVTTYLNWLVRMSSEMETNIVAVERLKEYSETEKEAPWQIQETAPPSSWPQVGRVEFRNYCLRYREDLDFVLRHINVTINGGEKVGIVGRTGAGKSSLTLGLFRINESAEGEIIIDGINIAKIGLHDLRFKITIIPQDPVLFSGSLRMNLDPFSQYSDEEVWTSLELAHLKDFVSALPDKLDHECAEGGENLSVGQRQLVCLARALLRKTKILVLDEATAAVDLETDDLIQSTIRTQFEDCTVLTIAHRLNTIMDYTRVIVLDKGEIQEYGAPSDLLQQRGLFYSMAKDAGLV", "UniProt Q16696, sequence (whole entry, looked up)": "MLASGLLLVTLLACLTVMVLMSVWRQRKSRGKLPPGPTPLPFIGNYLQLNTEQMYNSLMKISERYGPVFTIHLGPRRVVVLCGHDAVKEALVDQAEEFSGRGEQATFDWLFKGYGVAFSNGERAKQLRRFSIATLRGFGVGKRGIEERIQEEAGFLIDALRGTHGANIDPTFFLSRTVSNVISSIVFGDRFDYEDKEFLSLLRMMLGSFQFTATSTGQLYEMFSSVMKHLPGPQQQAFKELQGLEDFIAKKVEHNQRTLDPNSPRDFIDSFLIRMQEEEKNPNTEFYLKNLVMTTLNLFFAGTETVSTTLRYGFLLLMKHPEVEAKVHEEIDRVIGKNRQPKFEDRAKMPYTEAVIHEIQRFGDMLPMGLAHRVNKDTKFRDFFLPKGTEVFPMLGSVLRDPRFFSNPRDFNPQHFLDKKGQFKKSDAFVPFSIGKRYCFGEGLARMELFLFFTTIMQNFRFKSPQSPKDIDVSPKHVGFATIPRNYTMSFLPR"}
{"SMILES": "CC(C)=CCc1c(O)cc2c(c1O)C(=O)C[C@@H](c1ccc(O)cc1)O2", "target or system": "human CYP3A4", "setting": "10 µM, pH 7.4", "quantity": "inhibition", "value": "< 10%"}
{"SMILES": "O=C(O)C(O)c1ccccc1 (racemic)", "target or system": "THP-1", "test": "pyroptotic LDH release", "setting": "2 µM, 40 min, together with: LPS then nigericin", "quantity": "inhibition", "value": "13.9%"}
{"SMILES": "CC(C)CC(=O)N[C@H](C(=O)N[C@H](C(=O)N[C@@H](CC(C)C)[C@@H](O)CC(=O)N[C@@H](C)C(=O)N[C@@H](CC(C)C)[C@@H](O)CC(=O)NCCOCCOCCC(=O)NCCCC[C@H](NC(=O)CN1CCN(CC(=O)O)CCN(CC(=O)O)CC1)C(=O)O)C(C)C)C(C)C", "target or system": "CTSD", "test": "SPR", "quantity": "dissociation half-life", "value": "1.52 min"}
{"SMILES": "CC(C)=CCc1c(O)cc(O)c2c1O[C@H](c1ccc(O)cc1)CC2=O", "target or system": "human CYP3A4", "setting": "10 µM, pH 7.4", "quantity": "inhibition", "value": "31.4 ± 2.8%"}
{"SMILES": "CCCCC1=NC2(CCCC2)C(=O)N1Cc1ccc(-c2ccccc2S(=O)(=O)Nc2noc(C)c2C)c(COCC)c1", "target or system": "CYP2C19", "test": "enzyme induction, inducer", "test system": "human", "quantity": "Hill coefficient", "value": 1.57}
{"SMILES": "O=C(Nc1c2c(cc3c1CCC3)CCC2)NS(=O)(=O)/C=C/c1nccs1", "target or system": "human CYP3A4", "test system": "human liver microsomes", "setting": "2 µM, pH 7.4, together with: testosterone", "quantity": "inhibition", "value": "0.6%"}
{"SMILES": "CCn1c(C(=O)N(C2CC2)C2CC2)cc2c3c(ncn3C)c(Nc3cc(C)n(C)n3)nc21", "target or system": "CYP1A2 (human)", "test": "inducer, item: CYP1A2 mRNA", "test system": "cultured human hepatocytes", "setting": "3 days", "quantity": "EC50", "value": "2.7 µM"}
{"SMILES": "CC[C@H]1[C@@H](O)[C@@H]2[C@H](CC[C@]3(C)[C@@H]([C@H](C)CCNC(=O)NS(=O)(=O)c4ccc(C(C)(C)C)cc4)CC[C@@H]23)[C@@]2(C)CC[C@@H](O)C[C@@H]12", "target or system": "CYP3A4", "test system": "human, plasma", "setting": "dose not given, compound alone", "quantity": "half-life mean", "value": "655 min"}
{"SMILES": "Cc1oc2ccccc2c1Cc1cc(I)c(OCC(=O)O)c(I)c1", "target or system": "KCNH2 (Homo sapiens, UniProt Q12809, Y652A)", "test": "potassium current, two-electrode voltage clamp", "test system": "Xenopus oocytes", "setting": "50 µM", "quantity": "activation at negative voltages", "value": "inhibited"}
{"SMILES": "C#C[C@]1(O)CC[C@H]2[C@@H]3CCC4=CC(=NO)CC[C@@H]4[C@H]3CC[C@@]21CC (mixture of isomers)", "target or system": "human CYP3A4", "test": "retrograde calculation", "test system": "microsomal incubation", "quantity": "unbound fraction in microsomes", "value": 1}
{"SMILES": "O=C(/C=C/c1cccnc1)NCCCCC1CCN(C(=O)c2ccccc2)CC1", "target or system": "rat cytochrome P450", "test": "inhibitor", "test system": "rat liver microsomes", "setting": "1 µM, 15 min, pH 7.4, together with: aminopyrine 2 mM", "quantity": "aminopyrine N-demethylase activity", "value": "5.25 nmol/min/mg"}
{"SMILES": "COc1ccc2[nH]c([S+]([O-])Cc3ncc(C)c(OC)c3C)nc2c1 (stereo not drawn)", "target or system": "CYP1A2 human", "test": "inducer", "test system": "hepatocytes lot HC3-31", "setting": "100 µM", "scale": "baseline: DMSO", "quantity": "relative enzyme activity", "value": 23.6}
{"SMILES": "NC/C(=C\\F)COc1cccc(Cn2c(=S)[nH]c(=O)c3[nH]cnc32)c1", "target or system": "ABCC1 (Homo sapiens, UniProt P33527)", "test": "calcein AM efflux", "test system": "HEK293 expressing ABCC1", "setting": "30 µM", "quantity": "inhibition", "value": "< 50%"}
{"SMILES": "CN(Cc1ccc(C(C)(C)C)cc1)Cc1cccc2ccccc12", "target or system": "THP-1", "test": "pyroptotic LDH release", "setting": "2 µM, 40 min, together with: LPS then nigericin", "quantity": "inhibition", "value": "14.1%"}
{"SMILES": "CN1C[C@@H]2C[C@H]1CN2c1cc2c(cc1F)c(=O)c(C(=O)O)cn2C1CC1", "target or system": "ovine ABCG2", "test": "transepithelial transport", "test system": "MDCK-II transduced with ovine ABCG2", "setting": "10 µM, 4 h", "scale": "baseline: B-A over A-B", "quantity": "efflux ratio", "value": "12.3 ± 4.77"}
{"SMILES": "C=CC(=O)Nc1cc(Nc2nccc(Nc3cc(Cl)c(F)cc3C(C)(C)O)n2)c(OC)cc1N1CC[C@@H](N(C)C)C1", "target or system": "MDR1 and BCRP", "test system": "MDCKII-MDR1-BCRP", "setting": "1 µM, 2 h, pH 7.4", "quantity": "efflux ratio", "value": "14.1 ± 7"}
{"SMILES": "CC(C)CC(=O)N[C@H](C(=O)N[C@H](C(=O)N[C@@H](CC(C)C)[C@@H](O)CC(=O)N[C@@H](C)C(=O)N[C@@H](CC(C)C)[C@@H](O)CC(=O)NCCCC[C@H](NC(=O)CCOCCOCCNC(=O)CN1CCN(CC(=O)O)CCN(CC(=O)O)CC1)C(=O)O)C(C)C)C(C)C", "target or system": "CTSD", "test": "binding, surface plasmon resonance", "quantity": "dissociation half-life", "value": "53.7 min"}
{"SMILES": "Cc1cc(Nc2ncnc3ccc(NC4=NC(C)(CO)CO4)cc23)ccc1Oc1ccn2ncnc2c1 (stereo not drawn)", "target or system": "CYP3A4", "test system": "human, plasma", "setting": "oral, 300 mg tucatinib single dose, day 1, tucatinib alone", "quantity": "AUC(0-t) (geometric mean)", "value": "482 ng·h/mL"}
{"SMILES": "C[C@H]1CN(C2COC2)CCN1c1ccc(Nc2cc(-c3ccnc(N4CCn5c(cc6c5CC(C)(C)C6)C4=O)c3CO)cn(C)c2=O)nc1", "target or system": "human liver microsomes CYP", "test system": "human liver microsomes", "setting": "1 µM, 60 min, pH 7.4, together with: no NADPH", "scale": "baseline: 0 min", "quantity": "remaining compound", "value": "97.5 ± 11.5%"}
{"SMILES": "CCC#Cc1ccc(-c2ccccc2)cc1", "target or system": "Cytochrome P450 2A13 (Homo sapiens, UniProt Q16696)", "test": "enzyme activity, inhibitor", "setting": "together with: 10 µM coumarin", "quantity": "IC50", "value": "30 to 90 µM"}
{"SMILES": "COc1cc2c(c(OC)c1OC)-c1c(cc3c(c1OC)OCO3)[C@H](OC(=O)c1ccccc1)[C@@](C)(O)[C@@H](C)C2", "target or system": "human recombinant CYP3A4 and CYP3A5", "test": "item: 6β-hydroxytestosterone", "setting": "15 min, pH 7.4, together with: testosterone 50 µM", "scale": "baseline: CYP3A4 over CYP3A5", "quantity": "IC50 ratio", "value": 9.4}
{"note": "For quick reference, copied from above:"}
{"SMILES": "CCn1c(C(=O)N(C2CC2)C2CC2)cc2c3c(ncn3C)c(Nc3cc(C)n(C)n3)nc21", "target or system": "CYP1A2 (human)", "test": "inducer, item: CYP1A2 mRNA", "test system": "cultured human hepatocytes", "setting": "3 days", "quantity": "EC50", "value": "2.7 µM"}
{"SMILES": "CC[C@H]1[C@@H](O)[C@@H]2[C@H](CC[C@]3(C)[C@@H]([C@H](C)CCNC(=O)NS(=O)(=O)c4ccc(C(C)(C)C)cc4)CC[C@@H]23)[C@@]2(C)CC[C@@H](O)C[C@@H]12", "target or system": "CYP3A4", "test system": "human, plasma", "setting": "dose not given, compound alone", "quantity": "half-life mean", "value": "655 min"}
{"SMILES": "Cc1oc2ccccc2c1Cc1cc(I)c(OCC(=O)O)c(I)c1", "target or system": "KCNH2 (Homo sapiens, UniProt Q12809, Y652A)", "test": "potassium current, two-electrode voltage clamp", "test system": "Xenopus oocytes", "setting": "50 µM", "quantity": "activation at negative voltages", "value": "inhibited"}
